Experimental data pooled from the literature.
Numbered parts are unrelated; each lists some results of a single study.

Sample 1 — method: protein-binding microarray; form: double-stranded DNA, one strand shown; matrix: in vitro; concentration: not given; direction: higher = stronger binding
Target: Protein C-ets-1 (ETS1, Homo sapiens, UniProt P14921, residues 1-441, full length assumed)
Chain of UniProt P14921 (whole entry, looked up): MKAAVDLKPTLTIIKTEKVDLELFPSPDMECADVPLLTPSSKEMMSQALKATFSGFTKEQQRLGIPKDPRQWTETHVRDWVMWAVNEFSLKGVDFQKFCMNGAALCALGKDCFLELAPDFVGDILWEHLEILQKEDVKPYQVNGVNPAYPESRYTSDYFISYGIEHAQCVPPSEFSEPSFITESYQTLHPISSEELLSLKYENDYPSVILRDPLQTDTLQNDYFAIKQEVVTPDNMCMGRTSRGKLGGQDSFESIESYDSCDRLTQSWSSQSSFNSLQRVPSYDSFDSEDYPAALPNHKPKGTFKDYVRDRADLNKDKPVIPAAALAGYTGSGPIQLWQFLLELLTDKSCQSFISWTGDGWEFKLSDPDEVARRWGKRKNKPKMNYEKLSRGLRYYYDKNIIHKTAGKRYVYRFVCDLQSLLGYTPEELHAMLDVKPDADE
Notes: k-mer, scored over probes, only values ≥0.25
Oligonucleotide	E-score
AAGGATGT	0.402
GAACAGGA	0.333
CAGGATGC	0.466
AGACAGGA	0.423
ACATCCAG	0.265

Sample 2 — method: protein-binding microarray; form: double-stranded DNA, one strand shown; matrix: in vitro; concentration: 250 nM; notes: 60-bp whole probe; added: salmon DNA 0.4 mg/ml; relative to: random background probes; direction: higher = stronger binding
Target: Interferon regulatory factor 5, full length, phosphomimetic (IRF5, Homo sapiens, UniProt Q13568-2, residues 1-514, K96S/S451D/S453D/S456D/S462D)
Oligonucleotide	log fluorescence
GCCTAGCACTTAGGTTTCGGGCTTCGGTTAGTGCTAGTCTTGATTCGCTTGACGCTGCTG	6.11 z-score
GCCTAGCACTTAGGTTTCCTTATCCTCTAGTGCTAGGTCTTGATTCGCTTGACGCTGCTG	0.874 z-score
GCCTAGCACGACGGACTCGGTTTCGGGACGTGCTAGGTCTTGATTCGCTTGACGCTGCTG	2.69 z-score

Sample 3 — method: universal PBM; form: double-stranded DNA, one strand shown; matrix: in vitro; concentration: 600 nM; direction: higher = stronger binding
Target: Sal-like protein 4, full length isoform A (SALL4, Homo sapiens, UniProt Q9UJQ4, residues 1-1053)
Chain of UniProt Q9UJQ4 (whole entry, looked up): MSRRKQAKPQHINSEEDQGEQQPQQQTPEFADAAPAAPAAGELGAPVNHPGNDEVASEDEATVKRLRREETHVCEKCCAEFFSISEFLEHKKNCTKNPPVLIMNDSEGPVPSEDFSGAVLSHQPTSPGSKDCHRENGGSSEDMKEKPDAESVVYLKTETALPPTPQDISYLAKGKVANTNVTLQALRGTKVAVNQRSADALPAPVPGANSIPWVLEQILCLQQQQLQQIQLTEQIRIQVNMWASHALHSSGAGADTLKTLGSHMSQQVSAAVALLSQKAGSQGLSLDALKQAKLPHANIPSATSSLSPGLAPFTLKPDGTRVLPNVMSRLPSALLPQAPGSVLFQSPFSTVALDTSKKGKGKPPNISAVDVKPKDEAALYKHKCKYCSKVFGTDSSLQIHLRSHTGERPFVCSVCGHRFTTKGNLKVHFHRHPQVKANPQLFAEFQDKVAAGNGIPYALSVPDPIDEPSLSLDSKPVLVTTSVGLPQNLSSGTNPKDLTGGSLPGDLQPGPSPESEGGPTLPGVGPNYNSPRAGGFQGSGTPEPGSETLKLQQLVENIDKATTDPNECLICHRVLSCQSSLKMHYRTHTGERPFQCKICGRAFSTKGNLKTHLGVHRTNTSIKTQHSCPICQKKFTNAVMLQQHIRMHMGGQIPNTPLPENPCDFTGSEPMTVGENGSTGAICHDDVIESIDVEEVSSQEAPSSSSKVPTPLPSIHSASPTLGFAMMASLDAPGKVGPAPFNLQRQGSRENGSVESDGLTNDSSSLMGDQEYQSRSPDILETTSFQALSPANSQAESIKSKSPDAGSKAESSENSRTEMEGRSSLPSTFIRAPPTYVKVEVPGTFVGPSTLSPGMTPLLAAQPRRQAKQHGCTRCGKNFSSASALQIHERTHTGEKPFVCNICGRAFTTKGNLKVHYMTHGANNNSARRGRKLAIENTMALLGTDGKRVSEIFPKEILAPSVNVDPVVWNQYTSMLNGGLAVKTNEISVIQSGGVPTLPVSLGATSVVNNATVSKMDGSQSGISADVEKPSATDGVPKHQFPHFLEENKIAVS
Notes: 8-mer, flanks averaged, mean of replicates
Oligonucleotide	E-score
CTCGATCA	-0.0898
CCTGTAGA	0.0614
AGAGACAA	0.0661
CCCGAGTA	-0.0361
AAACTAAT	0.279
GATTTGGA	0.179

Single results of other studies
Molecule	target	test	test system	conditions	scale	measurement	value
PhoQ, residues 284 288 289 292 302 303 TVTVVA	PhoP, residues 12 14 15 18 19 LHHSG (Escherichia coli, UniProt P23836)	Sort-seq, refers to: YFP reporter	E. coli	PhoQ-PhoP variant library, added: 10 µM Mg2+	relative to: high Mg2+ state, higher = stronger signaling	fold induction	12.4

Repeated from above (sample 1):
Oligonucleotide	E-score
CAGGATGC	0.466
AAGGATGT	0.402
